Measured values from different studies.
Compare with care: the assays were run in different laboratories. ± marks the error that the study gave.

| SMILES | tested on | assay | test system | conditions | how to read | quantity | result |
| --- | --- | --- | --- | --- | --- | --- | --- |
| O=C1c2cccc(O)c2C(=O)c2c(O)cc(CO)cc21 | HepaRG co-cultured with HK-2 | MTT |  | 66.67 µM, 48 h | reference: untreated control | cell viability | 60 ± 4.64% |
| CC(C)C[C@H](NC(=O)C[C@H](O)[C@H](CC(C)C)NC(=O)[C@H](Cc1c[nH]cn1)NC(=O)CNC(=O)[C@@H](NC(=O)[C@H](C)NC(=O)[C@H](Cc1c[nH]c2ccccc12)NC(=O)[C@H](CCC(N)=O)NC(=O)[C@@H](Cc1ccccc1)NC(=O)COCCOCCNC(=O)CCC(C(=O)O)N1CCN(CC(=O)O)CCN(CC(=O)O)CCN(CC(=O)O)CC1)C(C)C)C(N)=O (stereo partly shown) [lutetium-177 labelled] |  |  | BALB/c nu/nu mice, brain | intravenous, 100 pmol, 1 h, added: PA 300 µg |  | tissue uptake | 0.02 ± 0.01 %ID/g |
| COc1c(O)cc2c(c1O)C(=O)c1c(cc(C)c(O)c1OC)C2=O | HepaRG co-cultured with HK-2 | MTT |  | 66.67 µM, 48 h | reference: untreated control | cell viability | 67.3 ± 4.37% |
| O=C(O)C[C@H](O)C[C@H](O)/C=C/c1c(C2CC2)nc2ccccc2c1-c1ccc(F)cc1 | COS-7 | WST-8 |  | 30 µM, 24 h, 0.1% DMSO, unit not given | reference: vehicle control | metabolic activity | 0.95 ± 0.05 |
| Oc1ccccc1-c1n[nH]cc1-c1ccnc2ccccc12 | KNS1 (Candida albicans) | kinase binding, MIB/MS competition | Candida albicans lysate | 1 µM | reference: DMSO | log2 fold change | 0.29 |
| NC(=O)c1cnc2[nH]ccc2c1N[C@@H]1[C@@H]2CC3C[C@H]1C[C@@](O)(C3)C2 |  | flow cytometry | Japanese healthy men, blood | oral, 100 mg twice daily, 72 h after day 7 dose | reference: baseline | CD4+ central memory change | -0.75% |
| O=C(/C=C/C#Cc1cccc(NS(=O)(=O)c2ccccc2)c1)NO | OCI-Ly1 |  |  | 0.1 µM, 120 h |  | viability | 142% |
| C[C@H]1C[C@H]2CSC(N)=N[C@@]2(c2nc(NC(=O)c3ccc(OC(F)F)cn3)cs2)CO1 |  | measured: total Aβ | healthy adults, plasma | 400 mg single dose, 8 h post-dose | reference: placebo | percent change from baseline | -60.9% |
| c1coc(-c2n[nH]cc2-c2ccnc3ccccc23)c1 | YPK1 (Candida albicans) | kinase binding, MIB/MS competition | Candida albicans lysate | 1 µM | reference: DMSO | log2 fold change | -0.17 |
| CC1=NN(c2ccc(C(=O)O)cc2)C(=O)/C1=C\c1ccc(-c2cc(C)c(C)cc2[N+](=O)[O-])o1 | OCI-Ly1 |  |  | 0.1 µM, 120 h |  | viability | 105% |
| O=C(O)CNC(=O)Cc1ccccc1 |  |  | ventricular cardiomyocytes, C57BL/6 mouse | dose not given, 0.244 s |  | sarcomere length | 1.64 µm |
| COc1cc2c(NC3CCN(C(C)C)CC3)nc(C3CCCCC3)nc2cc1OCCCN1CCCC1 | OCI-Ly1 |  |  | 0.5 µM, 120 h |  | viability | 143% |
| Cn1cc(-c2ccc(-c3cncc(Cl)c3N3CCC4(CCNC4=O)CC3)cc2)cn1 | COLO 205 | gene expression, microarray, measured: TNFRSF10B (DR5) mRNA |  | concentration not given, 2 h | reference: untreated cells | log2 fold change | 1.86 |

Some of these lines once more:
| SMILES | tested on | assay | test system | conditions | how to read | quantity | result |
| --- | --- | --- | --- | --- | --- | --- | --- |
| COc1cc2c(NC3CCN(C(C)C)CC3)nc(C3CCCCC3)nc2cc1OCCCN1CCCC1 | OCI-Ly1 |  |  | 0.5 µM, 120 h |  | viability | 143% |
| Cn1cc(-c2ccc(-c3cncc(Cl)c3N3CCC4(CCNC4=O)CC3)cc2)cn1 | COLO 205 | gene expression, microarray, measured: TNFRSF10B (DR5) mRNA |  | concentration not given, 2 h | reference: untreated cells | log2 fold change | 1.86 |
